Results of several laboratories.
Numbered parts are unrelated; each lists some results of a single study. Several values in a cell are separate wells, animals, samples, runs or records.
Chain of UniProt Q15746 (whole entry, looked up): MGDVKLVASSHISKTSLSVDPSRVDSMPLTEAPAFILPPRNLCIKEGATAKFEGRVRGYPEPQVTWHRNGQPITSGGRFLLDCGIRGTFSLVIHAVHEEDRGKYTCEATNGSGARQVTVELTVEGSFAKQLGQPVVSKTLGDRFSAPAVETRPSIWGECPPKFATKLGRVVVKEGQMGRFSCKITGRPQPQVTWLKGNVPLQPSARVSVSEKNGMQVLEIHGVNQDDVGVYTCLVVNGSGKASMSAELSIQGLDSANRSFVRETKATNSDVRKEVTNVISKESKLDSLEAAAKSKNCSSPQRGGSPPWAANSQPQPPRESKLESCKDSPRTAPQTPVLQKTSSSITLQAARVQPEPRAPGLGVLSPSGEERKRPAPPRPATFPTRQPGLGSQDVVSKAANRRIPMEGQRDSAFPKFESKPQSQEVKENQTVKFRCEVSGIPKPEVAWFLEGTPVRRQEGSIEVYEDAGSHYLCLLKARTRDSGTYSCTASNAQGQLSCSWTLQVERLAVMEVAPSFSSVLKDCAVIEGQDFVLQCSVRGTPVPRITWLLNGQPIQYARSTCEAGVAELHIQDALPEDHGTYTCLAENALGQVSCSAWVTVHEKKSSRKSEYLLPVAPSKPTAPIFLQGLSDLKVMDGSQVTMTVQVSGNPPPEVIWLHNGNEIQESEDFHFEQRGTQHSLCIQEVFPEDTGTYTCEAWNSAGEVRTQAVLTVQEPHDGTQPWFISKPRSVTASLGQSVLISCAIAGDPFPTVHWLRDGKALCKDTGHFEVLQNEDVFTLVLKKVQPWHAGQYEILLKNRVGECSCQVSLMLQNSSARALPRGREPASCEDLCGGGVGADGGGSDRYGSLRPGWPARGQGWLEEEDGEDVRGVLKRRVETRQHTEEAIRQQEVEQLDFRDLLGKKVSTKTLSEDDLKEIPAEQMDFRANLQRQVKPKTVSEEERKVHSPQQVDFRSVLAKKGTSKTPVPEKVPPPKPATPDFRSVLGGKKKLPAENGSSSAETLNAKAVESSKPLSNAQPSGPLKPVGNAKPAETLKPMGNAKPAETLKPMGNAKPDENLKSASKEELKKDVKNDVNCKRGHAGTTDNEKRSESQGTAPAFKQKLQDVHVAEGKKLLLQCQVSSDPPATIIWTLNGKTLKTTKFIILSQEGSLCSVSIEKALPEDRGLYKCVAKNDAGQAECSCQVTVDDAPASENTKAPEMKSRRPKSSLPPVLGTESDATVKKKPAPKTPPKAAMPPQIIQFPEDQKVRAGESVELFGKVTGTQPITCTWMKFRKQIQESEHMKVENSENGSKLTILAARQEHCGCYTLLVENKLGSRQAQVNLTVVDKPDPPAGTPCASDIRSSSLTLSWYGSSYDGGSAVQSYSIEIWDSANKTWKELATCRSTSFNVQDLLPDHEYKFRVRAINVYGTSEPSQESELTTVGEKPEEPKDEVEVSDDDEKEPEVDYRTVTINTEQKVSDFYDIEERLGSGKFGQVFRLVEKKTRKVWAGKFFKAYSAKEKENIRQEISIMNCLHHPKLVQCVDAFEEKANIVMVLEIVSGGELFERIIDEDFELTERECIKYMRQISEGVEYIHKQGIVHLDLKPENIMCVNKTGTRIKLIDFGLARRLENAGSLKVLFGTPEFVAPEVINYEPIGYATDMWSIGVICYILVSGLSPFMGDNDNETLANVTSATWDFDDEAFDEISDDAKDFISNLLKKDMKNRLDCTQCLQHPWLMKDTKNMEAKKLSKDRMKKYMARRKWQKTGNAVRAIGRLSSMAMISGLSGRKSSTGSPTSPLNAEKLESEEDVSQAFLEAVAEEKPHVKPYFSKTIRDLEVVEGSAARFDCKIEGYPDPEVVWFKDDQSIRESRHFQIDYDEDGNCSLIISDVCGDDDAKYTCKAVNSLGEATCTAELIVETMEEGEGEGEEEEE
Chain of UniProt P15735 (whole entry, looked up): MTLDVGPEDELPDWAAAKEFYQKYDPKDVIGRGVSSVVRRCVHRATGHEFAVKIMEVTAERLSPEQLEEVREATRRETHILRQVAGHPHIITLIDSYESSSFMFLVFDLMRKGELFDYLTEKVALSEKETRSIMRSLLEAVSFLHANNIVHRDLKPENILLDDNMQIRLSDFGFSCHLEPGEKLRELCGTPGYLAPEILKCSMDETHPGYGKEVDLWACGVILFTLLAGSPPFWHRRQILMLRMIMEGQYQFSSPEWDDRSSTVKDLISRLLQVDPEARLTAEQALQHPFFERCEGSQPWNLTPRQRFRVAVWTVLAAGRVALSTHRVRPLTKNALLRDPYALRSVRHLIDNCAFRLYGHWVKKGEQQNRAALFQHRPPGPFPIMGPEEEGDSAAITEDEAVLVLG
Chain of UniProt Q8IYT8 (whole entry, looked up): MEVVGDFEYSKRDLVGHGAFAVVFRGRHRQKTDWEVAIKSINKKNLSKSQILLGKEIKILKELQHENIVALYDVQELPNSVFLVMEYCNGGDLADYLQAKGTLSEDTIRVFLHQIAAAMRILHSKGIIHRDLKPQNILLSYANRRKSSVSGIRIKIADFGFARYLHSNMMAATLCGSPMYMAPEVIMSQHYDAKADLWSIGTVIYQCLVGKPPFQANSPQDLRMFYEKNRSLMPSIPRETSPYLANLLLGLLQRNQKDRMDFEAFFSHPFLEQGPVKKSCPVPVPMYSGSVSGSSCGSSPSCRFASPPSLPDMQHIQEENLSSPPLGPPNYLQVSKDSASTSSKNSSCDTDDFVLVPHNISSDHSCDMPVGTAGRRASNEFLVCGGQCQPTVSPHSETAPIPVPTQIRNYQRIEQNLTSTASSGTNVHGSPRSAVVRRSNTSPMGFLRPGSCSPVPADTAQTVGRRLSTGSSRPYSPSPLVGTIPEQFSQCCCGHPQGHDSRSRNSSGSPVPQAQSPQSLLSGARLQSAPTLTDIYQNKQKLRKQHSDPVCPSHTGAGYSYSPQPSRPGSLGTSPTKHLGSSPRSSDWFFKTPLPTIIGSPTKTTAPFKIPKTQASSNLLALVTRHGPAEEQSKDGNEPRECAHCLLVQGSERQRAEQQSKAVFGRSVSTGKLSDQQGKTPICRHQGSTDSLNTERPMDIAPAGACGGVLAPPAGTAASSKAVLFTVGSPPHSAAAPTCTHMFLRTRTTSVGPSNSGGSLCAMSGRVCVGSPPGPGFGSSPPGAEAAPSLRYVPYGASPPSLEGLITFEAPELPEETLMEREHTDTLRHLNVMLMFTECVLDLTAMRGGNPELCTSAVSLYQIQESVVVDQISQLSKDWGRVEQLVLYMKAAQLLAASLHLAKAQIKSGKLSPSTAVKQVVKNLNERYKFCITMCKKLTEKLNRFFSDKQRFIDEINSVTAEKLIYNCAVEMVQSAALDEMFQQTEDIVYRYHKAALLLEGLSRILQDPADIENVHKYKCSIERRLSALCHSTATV
Chain of UniProt O75582 (whole entry, looked up): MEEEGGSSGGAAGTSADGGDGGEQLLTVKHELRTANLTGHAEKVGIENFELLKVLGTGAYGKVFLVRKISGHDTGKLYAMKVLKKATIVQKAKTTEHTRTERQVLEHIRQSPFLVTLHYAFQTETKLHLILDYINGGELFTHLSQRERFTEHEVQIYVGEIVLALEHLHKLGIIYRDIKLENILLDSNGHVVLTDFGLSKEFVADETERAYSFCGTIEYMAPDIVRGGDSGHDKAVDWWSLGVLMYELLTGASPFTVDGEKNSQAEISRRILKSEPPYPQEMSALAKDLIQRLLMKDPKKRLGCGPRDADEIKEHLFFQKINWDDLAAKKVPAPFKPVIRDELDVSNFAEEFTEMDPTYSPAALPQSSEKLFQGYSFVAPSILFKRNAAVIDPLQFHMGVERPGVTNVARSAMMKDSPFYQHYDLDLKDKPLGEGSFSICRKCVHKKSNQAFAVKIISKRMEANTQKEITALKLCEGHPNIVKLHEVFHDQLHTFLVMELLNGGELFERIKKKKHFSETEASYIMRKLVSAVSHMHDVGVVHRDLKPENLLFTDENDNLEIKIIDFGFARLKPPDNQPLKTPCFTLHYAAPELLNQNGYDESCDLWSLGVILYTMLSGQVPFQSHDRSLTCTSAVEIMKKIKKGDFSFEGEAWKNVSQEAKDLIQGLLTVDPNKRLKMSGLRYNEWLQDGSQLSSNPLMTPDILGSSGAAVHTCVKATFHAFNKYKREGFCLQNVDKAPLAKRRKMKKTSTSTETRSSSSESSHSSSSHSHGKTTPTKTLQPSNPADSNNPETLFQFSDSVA

Series 1 — observed: enzyme activity; action: inhibitor; tested at: 0.5 µM; baseline: control
Target: Mitogen-activated protein kinase kinase kinase 8 (MAP3K8, Homo sapiens, UniProt P41279)
Chain of UniProt P41279 (whole entry, looked up): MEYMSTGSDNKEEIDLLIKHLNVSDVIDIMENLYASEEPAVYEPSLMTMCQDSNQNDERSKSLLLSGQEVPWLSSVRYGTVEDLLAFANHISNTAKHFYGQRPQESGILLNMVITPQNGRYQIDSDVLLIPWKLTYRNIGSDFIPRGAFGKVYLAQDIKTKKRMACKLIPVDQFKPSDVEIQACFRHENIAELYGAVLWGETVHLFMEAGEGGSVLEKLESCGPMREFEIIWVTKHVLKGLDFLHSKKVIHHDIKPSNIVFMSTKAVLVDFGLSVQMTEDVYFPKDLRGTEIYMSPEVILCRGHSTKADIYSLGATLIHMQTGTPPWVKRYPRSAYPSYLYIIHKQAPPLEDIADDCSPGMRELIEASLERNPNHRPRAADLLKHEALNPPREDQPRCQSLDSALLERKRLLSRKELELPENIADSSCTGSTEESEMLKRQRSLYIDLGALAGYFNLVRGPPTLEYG
Compound	remaining activity [%]
Cc1ccc(NC(=O)c2ccc(CN3CCN(C)CC3)cc2)cc1Nc1nc(-c2cccnc2)cs1	91.5
C#Cc1cccc(Nc2ncnc3cc(OCCOC)c(OCCOC)cc23)c1	91.8
Nc1ccc2ncnc(NCCc3ccc(Oc4ccccc4)cc3)c2c1	97.2
O=c1c2ccccc2[nH]c(=S)n1CCN1CCC(=C(c2ccc(F)cc2)c2ccc(F)cc2)CC1	100
COc1cc2nccc(Oc3ccc(NC(=S)NC(=O)c4ccccc4C)cc3)c2cc1OC	94.1
O=C1NC(=O)C(c2cn(CCCO)c3ncccc23)=C1c1cnccn1	97
CN(C)c1ccc(C=C2C(=O)Nc3ccccc32)cc1	99.6
CC(C)[C@H](CO)Nc1nc(Nc2cc(N)cc(Cl)c2)c2ncn(C(C)C)c2n1	109
Cc1cccc(-c2[nH]c(C(C)(C)C)nc2-c2ccc3c(c2)OCO3)n1	94.5
N#CC(C#N)=C(N)/C(C#N)=C/c1ccc(O)cc1	96
O=C(O)c1ccc2c3c1cccc3c(=O)n1c3ccccc3nc21	88.3
O=S(=O)(c1cccc2cnccc12)N1CCCNCC1	91.8
CNC(=O)c1cc(Oc2ccc(NC(=O)Nc3ccc(Cl)c(C(F)(F)F)c3)cc2)ccn1	93.6
COc1ccc(OC)c2c(=S)c3ccccc3[nH]c12	111
Cn1sc(=O)n(Cc2ccccc2)c1=O	97.1
Oc1ccc(-c2nc(-c3ccncc3)c(-c3ccc(F)cc3)[nH]2)cc1	96.6

Series 2 — observed: cell-free assay; technique: competition with immobilised ligand; tested at: 0.1 µM
SMILES: CS(=O)(=O)N1CCCC(NC(=O)[C@H](CCC2CCCCC2)NC(=O)c2ccc(CNc3ncnc4c3nnn4-c3ccccc3)cc2)C1 (stereo partly drawn)
target	remaining binding
Myosin light chain kinase, smooth muscle (MYLK, Homo sapiens, UniProt Q15746)	100%
Ribosomal protein S6 kinase alpha-5, C-terminal kinase domain (RPS6KA5, Homo sapiens, UniProt O75582)	95%
Discoidin domain-containing receptor 2 (DDR2, Homo sapiens, UniProt Q16832)	100%
Tyrosine-protein kinase ABL1, non-phosphorylated (ABL1, Homo sapiens, UniProt P00519, T315I)	100%
Maternal embryonic leucine zipper kinase (MELK, Homo sapiens, UniProt Q14680)	100%
Phosphorylase b kinase gamma catalytic chain, liver/testis isoform (PHKG2, Homo sapiens, UniProt P15735)	100%
Serine/threonine-protein kinase ULK2 (ULK2, Homo sapiens, UniProt Q8IYT8)	100%

Series 3 — route: subcutaneous; dose: 0.3 mg/kg/day DON equivalent; time: 5 days; direction: higher = more metabolite
Structure (SMILES): CC(=O)N[C@@H](Cc1c[nH]c2ccccc12)C(=O)N[C@@H](CCC(=O)C=[N+]=[N-])C(=O)OC(C)C
assay	test system	metabolite peak area
UPLC-MS/MS, refers to: tyrosine	C57BL/6 CES1-/- mice, EL4 tumour	5.05e+08 a.u. and 5.78e+08 a.u. and 6.52e+08 a.u. and 5.79e+08 a.u. and 7.04e+08 a.u. and 7.12e+08 a.u.
UPLC-MS/MS, refers to: 2',3'-cyclic CMP	C57BL/6 CES1-/- mice, EL4 tumour	165000 a.u. and 665000 a.u. and 322000 a.u. and 630000 a.u. and 423000 a.u. and 676000 a.u.
UPLC-MS/MS metabolomics, refers to: galactonate	EL4, C57BL/6 CES1-/- mice, EL4 tumour, tumour	6.66e+07 a.u. and 3.57e+07 a.u. and 5.28e+07 a.u. and 4.39e+07 a.u. and 5.21e+07 a.u. and 8.04e+07 a.u.
UPLC-MS/MS, refers to: dAMP	C57BL/6 CES1-/- mice, EL4 tumour	124000 a.u. and 157000 a.u. and 122000 a.u. and 26800 a.u. and 73900 a.u. and 83900 a.u.

Series 4 — cell line: mouse MPNST tumor cells; technique: high-content nuclear imaging; refers to: cell number; tested at: 10 µM; time: 12 h; notes: mean of 2 replicates; baseline: plate mean; direction: higher = more cells
SMILES	nuclei count [z-score]
COCCN1CCC(C(=O)NO)(S(=O)(=O)c2ccc(Oc3ccc(OC(F)(F)F)cc3)cc2)CC1	1.47
Cc1nnc(-c2ccc3occ(-c4ccc([S+](C)[O-])cc4)c3c2)o1 (stereo not drawn)	-1.42
CCOc1cc(C(=O)N2CCC(N3CCN(C)CC3)CC2)ccc1Nc1ncc2c(n1)N(C1CCCC1)c1ccccc1C(=O)N2C	-4.86
CCN(CC)CC1CCCCN1CC(=O)N1c2ccccc2C(=O)Nc2cccnc21 (stereo not drawn)	1.63
Fc1ccc(-c2c3cccc(C(F)(F)F)c3nn2Cc2ccc(F)cc2Cl)cc1	2.71
COc1ccc2[nH]c(=O)c(C(c3nnnn3CCc3ccccc3)N3CCN(C4CCCCC4)CC3)cc2c1 (stereo not drawn)	0.228
